{"data": "Assay results pooled from the literature", "cell line": "Vero", "note": "Each line is one published result; not all experiments were run side by side. Numbers after ± are the reported error."}
{"SMILES": "CC1(F)CN(C(=O)Cn2c(=O)c(C(=O)NCc3ccc(Cl)cc3)cc3nc(N4CCN(CCN)C4=O)cnc32)C1", "test": "cell growth or viability, CCK-8", "conditions": "5 days", "measurement": "CC50", "value": "> 40 µM"}
{"SMILES": "Cc1[nH]c(=S)[nH]c(=O)c1/N=N/c1nnc(S)s1", "test": "cell growth or viability, MTT", "conditions": "72 h", "measurement": "CC50", "value": "≥ 10 µg/mL"}
{"SMILES": "Oc1cccc2c1[nH]c1c(C3=CC4(O)CCC=CCCCCN5CCC3C3(CC6C=CCCCCN6C43)C5)nccc12 (single isomer, unassigned; (+))", "test": "cytotoxicity", "measurement": "IC50", "value": "0.775 ± 0.175 µg/mL"}
{"SMILES": "NC(=O)c1cccc(NC(=O)c2cc(-c3ccc(Br)cc3)n(-c3ccccc3)n2)c1", "test": "cell growth or viability", "conditions": "12.5 µM", "measurement": "viability", "value": "87%"}
{"SMILES": "Cc1[nH]c(=S)[nH]c(=O)c1/N=N/c1nnc(S)[nH]1", "test": "cell growth or viability, MTT", "conditions": "72 h", "measurement": "CC50", "value": "≥ 10 µg/mL"}
{"SMILES": "NCc1ccc(NC(=O)c2cc(-c3ccccc3)n(-c3ccccc3)n2)cc1", "test": "cell growth or viability", "conditions": "12.5 µM", "measurement": "viability", "value": "> 95%"}
{"SMILES": "CN(C)c1ncnc2c1ncn2[C@@H]1O[C@H](CCl)[C@@H](NC(=O)[C@H](CSC23CC4CC(CC(C4)C2)C3)NC(=O)OC(C)(C)C)[C@H]1O", "test": "cell growth or viability, MTT", "measurement": "CC50", "value": "27.1 µM"}
{"SMILES": "Cc1ccccc1-n1nc(C(=O)Nc2cccc(C(N)=O)c2)cc1-c1cccnc1", "test": "cell growth or viability", "conditions": "12.5 µM", "measurement": "viability", "value": "> 95%"}
{"SMILES": "O=C(Oc1cc(OC(=O)c2cc(O)c(O)c(O)c2)c2ccccc2c1)c1cc(O)c(O)c(O)c1", "test": "cell growth or viability, MTT", "conditions": "48 h", "measurement": "CC50", "value": "88.9 µM"}
{"note": "A few entries again:"}
{"SMILES": "CN(C)c1ncnc2c1ncn2[C@@H]1O[C@H](CCl)[C@@H](NC(=O)[C@H](CSC23CC4CC(CC(C4)C2)C3)NC(=O)OC(C)(C)C)[C@H]1O", "test": "cell growth or viability, MTT", "measurement": "CC50", "value": "27.1 µM"}
